# Values quoted from earlier work, collected from citations in different studies.
# ± gives the spread as reported.
# Chain of UniProt Q86YV6 (whole entry, looked up): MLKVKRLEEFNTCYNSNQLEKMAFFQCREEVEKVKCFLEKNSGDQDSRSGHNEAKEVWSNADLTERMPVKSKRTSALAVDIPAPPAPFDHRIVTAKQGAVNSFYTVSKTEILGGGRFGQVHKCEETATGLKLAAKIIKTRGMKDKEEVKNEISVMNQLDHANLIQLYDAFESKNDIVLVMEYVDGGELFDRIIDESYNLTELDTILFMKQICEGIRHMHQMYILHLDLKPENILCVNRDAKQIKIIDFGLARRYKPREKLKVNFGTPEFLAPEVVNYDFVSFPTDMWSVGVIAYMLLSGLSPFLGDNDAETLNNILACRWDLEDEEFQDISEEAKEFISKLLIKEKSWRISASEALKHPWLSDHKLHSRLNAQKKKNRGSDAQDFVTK
SMILES,tested on,assay,test system,conditions,scale,endpoint,result
Nc1cc(C(F)(F)F)c(-c2nc(N3CCOCC3)nc(N3CCOCC3)n2)cn1,"MYLK4 (Homo sapiens, UniProt Q86YV6)",enzyme activity,,10 µM,reference: untreated,remaining activity,77%
Cc1cc(C)c(CNC(=O)c2cc(Cl)c3c(c2C)O[C@@](C)([C@H]2CC[C@H](N(C)C)CC2)O3)c(=O)[nH]1,,,healthy human,"25 mg, arithmetic mean",,Cmax,114 ng/mL
COc1ccc2[nH]c([S+]([O-])Cc3ncc(C)c(OC)c3C)nc2c1 (stereo not drawn),,,human post-RYGB patients,"oral tablet, 20 mg once daily, day 6, 6 months after surgery",,Cmax,486 ng/mL
CNCc1cc(-c2ccccc2F)n(S(=O)(=O)c2cccnc2)c1,,,human,"20 mg, single dose, fasted",,Cmax,16.3 ng/mL
COc1cccc2c1C(=O)c1c(O)c3c(c(O)c1C2=O)C[C@@](O)(C(=O)CO)C[C@@H]3O[C@H]1C[C@H](N)[C@H](O)[C@H](C)O1,,,"human, normal weight, plasma","intravenous infusion, 60 mg/m^2, 40 min infusion",,Cmax,~1000 nM
O=C(c1cccnc1-c1ccncc1)N1CCC(O)(Cc2ccccc2)CC1,,,"human adults, moderate hepatic impairment, plasma",300 mg single dose,,Cmax,3670 ng/mL
COc1cc2c(Oc3ccc4[nH]c(C)cc4c3F)ccnc2cc1OCC1(N)CC1,,,human,10 mg single dose,,Cmax,5.78 ± 2.76 ng/mL
C=CC(=O)N1CCC([C@@H]2CCNc3c(C(N)=O)c(-c4ccc(Oc5ccccc5)cc4)nn32)CC1,,,human patients,"oral, 320 mg once daily, day 1",,Cmax,683 ± 341 ng/mL
OC(Cn1cncn1)(Cn1cncn1)c1ccc(F)cc1F,,,"human, plasma","intravenous, 100 mg single dose, mean observed",,Cmax,2860 ng/mL
COCCc1ccc(OCC(O)CNC(C)C)cc1 (stereo not drawn),,,human fasted,"200 mg multiple doses, day 5, mean",,Cmax,101 ng/mL
CCN1CCN(Cc2ccc(Nc3ncc(F)c(-c4cc(F)c5nc(C)n(C(C)C)c5c4)n3)nc2)CC1,,,human,"100 mg single dose, tablet",,Cmax,127 ng/mL
Cc1nsc(-c2nnc3n2CCN(C(=O)c2ccc(F)cc2)[C@@H]3C)n1,,,human,"oral, 60 mg, day 21, fed",,Cmax,423 ng/mL

# A few entries again:
SMILES,tested on,assay,test system,conditions,scale,endpoint,result
COCCc1ccc(OCC(O)CNC(C)C)cc1 (stereo not drawn),,,human fasted,"200 mg multiple doses, day 5, mean",,Cmax,101 ng/mL
